{"data": "Results collected from several papers", "technique": "steady-state kinetics", "B1": "enzyme C33S (UniProt A0A0P0CH59); chain MRIALFSDIHANLPALEAVLANMETQQLDAIYSLGDLVGYAPWPNEVVAEIRKRRIPTIAGNYDEGVGLWSPNCGCAYKTDTEKDLGQQSIDFTNNVVTEETRKYLRMLPRQLRLTFMDGSKEENKIELLLVHGSPRKINEYLFEDRPEKSFLKMMEEANADLLFFGHTHKPYHRAMPYEHEGQTRYRHAINIGSVGKPKDGDPRTGYVVVELTPESSLTQKDSIKVEFIRVPYDVETAAQAVEASPLPNEFAQMLRTA", "B2": "enzyme (Bacteroides ovatus, UniProt A0ABU3IP51); chain ESITSPDGQLKLNFSVNMQGEPVYELSYKGKEVIKPSKLGLELKNDPGLINGFTLADIKTSAFDETWEPVWGEVKSIRNHYNEMAVTLNQKAQDRNLIICFRLYNDGLGFRYEFPQQKNLNYFVIKEEHSQFAMAGDHTAFWIPGDYDTQEYDYTESKLSEIRGLLQGAITPNASQTPFSPTGVQTSLQMKTADGLYINLHEAALVDYSCMHLNLDDQNLIFESWLTPDAKGDKGYMQTPCRSPWRTVIVSDDARDILASKLTLNLNEPCAYEDVSWIKPVKYIGVWWEMITGKSSWSYTDDVYSVKLGQTDYSQTKPSGRHAANNDKVKRYIDFASEHGFDQILVEGWNEGWEDWFGNSKDYVFDFVTPYPDFDVKMLNAYAKEKGVKLMMHHETSASVRNYERHLDKAYQFMIDNGYNAVKSGYVGNIIPRGEHHYGQWMNNHYLYAVEKAAEYKICVNAHEATRPTGLCRTYPNLIGNESARGTEYEAFAGNKPFHTTLLPFTRQIGGPMDYTPGIFDTKLSFLSGDHSFVRTTLAKQLALYVTMYSPLQMAADLPESYERHMDAFQFIKDVVVDWDDSKYLEAEPGDYITVARKAKGTDNWFVGGITDENPRTSAFTLDFLEPGKQYVATLYADGKEADFEKNPTSYQIKKGLVTNKNKMSVKLARSGGFAVSLIEATPADLKTIKKWK", "B3": "enzyme W53Y (Thermoplasma volcanium, UniProt Q978S7); chain MAFHGLVKYSDITVEGYPKIQYHGFIGNNRTAMLVAMNGYIDYGCLPNFNSNAVFSSILDKNKGGYFAIFPSDTTDVYVDQYYKEMTNVLVTEFVKNGKIILRLTDFMPDSEYGKISFPEVHRFVESFSEPIDITIDFKPTFNYGQDKPIIEKDQHGFIFTTDKESIGISSEFPLRKNSDRIFGNVKMEPRSSSWIIALYGIHHLFRTTDYKSYLRLQETTDYWRKWASSSSYAGAYHSMVMRSALALKVLFYEPTGLMVAAPTASLPEAIGGERNWDYRFTWIRDTAYVIEALSSIGYKYEATEFLYDMMDMITRDNRIRTIYSIDDSNDLEERIIDYEGYRGSRPVRIGNKAVDQLQIDQYGSIVRAIHSMAKAGGIVNSYLWDFVEQVMAKIEYLWKYPDSSIWEFRTEPKQYVYSKVMSWAAFDSAISMAKDLGLSAPIKQWKSIQDEIKKEVLEKGFDTDTNSFVQYYGSKNIDAALLRLPILGFIPANDEKFLGTLSRIEKELMVDGYLFKRYREDDGLKGDEGSFLMLTFWYIEDLILMKRLKKAREVLESVLEKANHLGLYSEEIDEKSGDFLGNFPQALSHLGVIRVAPKLEEALLKRTSKINS", "B4": "SCO6712 S292F/V290N/Y229F (Streptomyces coelicolor, UniProt Q9XAL8); chain AKGITARTAPAGGEVRHLKMYAEKLADGQMGYGFEKGKASVPGPLIEVNEGDTLHIEFTNTMDVRASLHVHGLDYEISSDGTAMNKSDVEPGGTRTYTWRTHKPGRRDDGTWRPGSAGYWHYHDHVVGTEHGTGGIRNGLYGPVIVRRKGDVLPDATHTIVFNDMTINNRKPHTGPDFEATVGDRVEIVMITHGEFYHTFHMHGHRWADNRTGILTGPDDPSRVIDNKITGPADSFGFQIIAGEGVGAGAWMYHCHNQFHSDMGMVGLFLVKKPDGTIPGYEPHEHGGATAKSGESGEPTGGAAAHEHEH", "B5": "enzyme (Myxococcus xanthus, UniProt Q1DB04); chain MSFINYSSREINCKIVYYGPGLCGKTTNLQYIYNKTAAETKGKLISLSTETDRTLFFDFLPLSLGEIRGFKTRFHLYTVPGQVFYDASRKLILKGVDGVVFVADSQIERMEANMESLENLRINLAEQGYDLNKIPYVIQYNKRDLPNAVTVEEMRKALNHRNIPEYQAVAPTGVGVFDTLKAVAKLVLTELKKGG", "B6": "spt (Sphingomonas paucimobilis, UniProt Q93UV0); chain TEAAAQPHALPADAPDIAPERDLLSKFDGLIAERQKLLDSGVTDPFAIVMEQVKSPTEAVIRGKDTILLGTYNYMGMTFDPDVIAAGKEALEKFGSGTNGSRMLNGTFHDHMEVEQALRDFYGTTGAIVFSTGYMANLGIISTLAGKGEYVILDADSHASIYDGCQQGNAEIVRFRHNSVEDLDKRLGRLPKEPAKLVVLEGVYSMLGDIAPLKEMVAVAKKHGAMVLVDEAHSMGFFGPNGRGVYEAQGLEGQIDFVVGTFSKSVGTVGGFVVSNHPKFEAVRLACRPYIFTASLPPSVVATATTSIRKLMTAHEKRERLWSNARALHGGLKAMGFRLGTETCDSAIVAVMLEDQEQAAMMWQALLDGGLYVNMARPPATPAGTFLLRCSICAEHTPAQIQTVLGMFQAAGRAVGVIG", "B7": "UGT76G1 (Stevia rebaudiana, UniProt Q6VAB4); chain MENKTETTVRRRRRIILFPVPFQGHINPILQLANVLYSKGFSITIFHTNFNKPKTSNYPHFTFRFILDNDPQDERISNLPTHGPLAGMRIPIINEHGADELRRELELLMLASEEDEEVSCLITDALWYFAQSVADSLNLRRLVLMTSSLFNFHAHVSLPQFDELGYLDPDDKTRLEEQASGFPMLKVKDIKSAYSNWQILKEILGKMIKQTKASSGVIWNSFKELEESELETVIREIPAPSFLIPLPKHLTASSSSLLDHDRTVFQWLDQQPPSSVLYVSFGSTSEVDEKDFLEIARGLVDSKQSFLWVVRPGFVKGSTWVEPLPDGFLGERGRIVKWVPQQEVLAHGAIGAFWTHSGWNSTLESVCEGVPMIFSDFGLDQPLNARYMSDVLKVGVYLENGWERGEIANAIRRVMVDEEGEYIRQNARVLKQKADVSLMKGGSSYESLESLVSYISSL", "B8": "aspC A106G/A218G/F210I/I29V/I33V/I68L/I71L/N30D/N64T/S135A/T100S/V136I/V375I (Escherichia coli, UniProt P00509); chain MFENITAAPADPILGLADLFRADERPGKVDLGVGVYKDETGKTPVLTSVKKAEQYLLENETTKTYLGLDGLPEFGRCTQELLFGKGSALINDKRARTAQSPGGTGGLRVAADFLAKNTSVKRVWVSNPSWPNHKAIFNSAGLEVREYAYYDAENHTLDFDALINSLNEAQAGDVVLFHGCCHNPTGIDPTLEQWQTLAQLSVEKGWLPLIDFAYQGFGRGLEEDAEGLRAFAAMHKELIVASSYSKNFGLYNERVGACTLVAADSETVDRAFSQMKAAIRANYSNPPAHGASVVATILSNDALRAIWEQELTDMRQRIQRMRQLFVNTLQEKGANRDFSFIIKQNGMFSFSGLTKEQVLRLREEFGVYAVASGRINVAGMTPDNMAPLCEAIVAVL", "note": "Compare with care: the assays were run in different laboratories. Numbers after ± are the reported error."}
{"Molecule": "B1 (enzyme C33S)", "substrate": "O=[N+]([O-])c1ccc(OP(=O)(O)O)cc1", "setting": "pH 7, 37 °C, together with: Ni2+ 0.25 mM", "kcat": "0.07 ± 0.005 s⁻¹"}
{"Molecule": "B2 (enzyme)", "substrate": "O=[N+]([O-])c1ccc(O[C@H]2O[C@H](CO)[C@@H](O)[C@H](O)[C@H]2O)cc1", "setting": "pH 6.6", "kcat": "51.2 ± 2.8 s⁻¹"}
{"Molecule": "acsA (Pseudomonas chlororaphis, UniProt Q5CD72)", "substrate": "CCCC(=O)O", "setting": "pH 7", "kcat": "0.217 ± 0.0167 s⁻¹"}
{"Molecule": "enzyme (Chlorobaculum tepidum, UniProt Q8KC02)", "substrate": "CC(=O)C(=O)O", "setting": "pH 7.5, 30 °C", "kcat": "6.767 ± 0.02 s⁻¹"}
{"Molecule": "B3 (enzyme W53Y)", "substrate": "OC[C@H]1O[C@H](O[C@H]2O[C@H](CO)[C@@H](O)[C@H](O)[C@H]2O)[C@H](O)[C@@H](O)[C@@H]1O", "setting": "pH 3.7, 30 °C", "kcat": "7.6 ± 0.1 s⁻¹"}
{"Molecule": "B4 (SCO6712 S292F/V290N/Y229F)", "substrate": "CCn1c(=NN=c2sc3cc(S(=O)(=O)O)ccc3n2CC)sc2cc(S(=O)(=O)O)ccc21", "setting": "pH 7, 37 °C, NaCl 150 mM, together with: O2 cosubstrate", "kcat": "1.38 ± 0.04 s⁻¹"}
{"Molecule": "enzyme (Pseudomonas aeruginosa, UniProt Q9I5Q5)", "substrate": "CC(=O)N[C@H]1[C@@H]2OC[C@@H](O2)[C@@H](O)[C@@H]1O[C@H](C)C(=O)O", "setting": "pH 7.5, apparent", "kcat": "46 ± 13 s⁻¹"}
{"Molecule": "B5 (enzyme)", "substrate": "Nc1nc2c(ncn2[C@@H]2O[C@H](COP(=O)(O)OP(=O)(O)OP(=O)(O)O)[C@@H](O)[C@H]2O)c(=O)[nH]1", "setting": "pH 7.4, apparent, together with: MglA 2 µM, MglB 4 µM", "kcat": "0.00267 s⁻¹"}
{"Molecule": "B6 (spt)", "substrate": "CCCCCCCCCCCC(=O)SCCNC(=O)CCNC(=O)[C@H](O)C(C)(C)COP(=O)(O)OP(=O)(O)OC[C@H]1O[C@@H](n2cnc3c(N)ncnc32)[C@H](O)[C@@H]1OP(=O)(O)O", "setting": "together with: PLP", "kcat": "0.11 ± 0.01 s⁻¹"}
{"Molecule": "B7 (UGT76G1)", "substrate": "C=C1C[C@@]23CC[C@H]4[C@@](C)(CCC[C@@]4(C)C(=O)O[C@@H]4O[C@H](CO)[C@@H](O)[C@H](O)[C@H]4O)[C@@H]2CC[C@]1(O[C@@H]1O[C@H](CO)[C@@H](O)[C@H](O)[C@H]1O)C3", "setting": "pH 7.25, 40 °C", "kcat": "0.207 ± 0.00533 s⁻¹"}
{"Molecule": "enzyme (Methanosarcina mazei, UniProt Q8PVB1)", "substrate": "Nc1ncnc2c1ncn2[C@@H]1O[C@H](COP(=O)(O)OP(=O)(O)OP(=O)(O)O)[C@@H](O)[C@H]1O", "setting": "pH 8.5, 25 °C, apparent, anoxic, together with: L-Thr 10 mM", "kcat": "0.036 ± 0.001 s⁻¹"}
{"Molecule": "B8", "substrate": "O=C(O)C(=O)Cc1ccccc1", "setting": "pH 7.5, 25 °C, together with: PLP 20 µM, ammonium acetate 10 mM", "kcat": "98 s⁻¹"}
{"Molecule": "enzyme (Arabidopsis thaliana, UniProt Q9SRM3)", "substrate": "CC/C=C\\C[C@@H]1C(=O)CC[C@@H]1CC(=O)O", "setting": "pH 7.5, 20 °C", "kcat": "0.000261 s⁻¹"}
{"note": "Some of these lines once more:"}
{"Molecule": "enzyme (Methanosarcina mazei, UniProt Q8PVB1)", "substrate": "Nc1ncnc2c1ncn2[C@@H]1O[C@H](COP(=O)(O)OP(=O)(O)OP(=O)(O)O)[C@@H](O)[C@H]1O", "setting": "pH 8.5, 25 °C, apparent, anoxic, together with: L-Thr 10 mM", "kcat": "0.036 ± 0.001 s⁻¹"}
